Experimental data of several laboratories.
± gives the spread as reported. Values after ≈ are worked out from the molar mass of the structure shown.
Sequence of UniProt Q9Y5T5 (whole entry, looked up): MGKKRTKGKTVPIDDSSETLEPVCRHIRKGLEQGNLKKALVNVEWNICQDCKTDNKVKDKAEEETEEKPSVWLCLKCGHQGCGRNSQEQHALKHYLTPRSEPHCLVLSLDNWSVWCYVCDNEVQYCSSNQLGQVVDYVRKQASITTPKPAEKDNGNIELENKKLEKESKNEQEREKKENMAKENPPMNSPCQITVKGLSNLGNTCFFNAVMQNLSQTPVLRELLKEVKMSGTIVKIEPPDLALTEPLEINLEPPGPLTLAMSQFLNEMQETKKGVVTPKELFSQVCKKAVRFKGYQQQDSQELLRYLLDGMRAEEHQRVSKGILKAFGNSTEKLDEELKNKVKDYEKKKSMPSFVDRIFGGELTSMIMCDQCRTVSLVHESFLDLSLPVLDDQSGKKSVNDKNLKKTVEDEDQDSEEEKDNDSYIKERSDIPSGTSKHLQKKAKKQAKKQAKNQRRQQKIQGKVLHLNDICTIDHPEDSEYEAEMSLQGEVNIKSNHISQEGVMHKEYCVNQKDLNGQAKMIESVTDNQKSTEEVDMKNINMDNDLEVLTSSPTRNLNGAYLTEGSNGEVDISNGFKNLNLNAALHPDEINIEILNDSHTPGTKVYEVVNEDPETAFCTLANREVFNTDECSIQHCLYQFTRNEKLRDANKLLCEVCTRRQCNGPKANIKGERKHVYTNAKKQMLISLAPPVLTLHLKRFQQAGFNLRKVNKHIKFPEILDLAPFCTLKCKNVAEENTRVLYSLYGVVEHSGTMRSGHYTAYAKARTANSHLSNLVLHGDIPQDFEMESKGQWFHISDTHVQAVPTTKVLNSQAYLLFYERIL

Compound | target or system | assay | system | conditions | how to read | quantity | value
Cc1ccc(C(=O)N(CCCN)C(c2nc3snc(C)c3c(=O)n2Cc2ccccc2)C(C)C)cc1 (stereo not drawn) |  |  | human patients | intravenous, 7 mg/day |  | grade ≥3 dysphagia patients | 0%
C[C@@H]1CCO[C@H]2Cn3cc(C(=O)NCc4ccc(F)cc4F)c(=O)c(O)c3C(=O)N12 |  | population PK, post-hoc | children, 6 to <10 kg, plasma | oral, 20 mg dispersible tablet, steady state, geometric mean |  | AUC(0-24) | 89500 ng·h/mL
O=C(Nc1nc2cccc(-c3ccc(CN4CCS(=O)(=O)CC4)cc3)n2n1)C1CC1 |  | item: vascular disorders | rheumatoid arthritis patients | oral, 75 mg once daily, 4 weeks, any relatedness |  | treatment-emergent adverse events | 0%
C[C@H]1CN(C(=O)CC#N)[C@]12CCN(c1ncnc3[nH]ccc13)C2 |  |  | human | oral, 12 mg single dose |  | participants with dry skin | 0%
COC(=O)C1=CO[C@@H](O[C@@H]2O[C@H](CO)[C@@H](O)[C@H](O)[C@H]2O)[C@@H]2C(CO)=CC[C@H]12 |  | post-procedure stability | rat plasma | 8 ng/mL, 1 h, room temperature |  | accuracy | 89.1%
COc1cccc(OC)c1-c1cc(C(=O)NC2(C(=O)O)C3CC4CC(C3)CC2C4)nn1-c1ccc(C(=O)N(C)CCCN(C)CCCN(C)C(=O)CN2CCN(CC(=O)[O-])CCN(CC(=O)[O-])CCN(CC(=O)[O-])CC2)cc1C(C)C.[177Lu+3] (stereo not drawn) |  |  | mouse, HT-29 xenograft, spleen | 24 h post injection |  | tissue uptake | 0.19 %ID/g
c1ccc2c(c1)-c1cccc3c1c-2cc1ccccc13 |  |  | polyethylene-water partitioning | PAH compilation | reference: maximum over minimum K | literature range factor | 5
NC1(C(=O)N[C@@H](CCO)c2ccc(Cl)cc2)CCN(c2nc[nH]c3nccc2-3)CC1 |  |  | metastatic CRPC patients | 480 mg b.i.d., grade 3 to 4, treatment-related, with: enzalutamide 160 mg daily |  | incidence of Hyper-glycaemia | 40%
N#Cc1ccc2c(c1)[C@H]1CCCN(C(=O)c3ccc4[nH]cnc4c3)[C@H]1C2 |  |  | human | 40 mg, day 7 |  | median ACTH level | 6.6 pmol/L
N[C@@H](CC(=O)N1CCn2c(nnc2C(F)(F)F)C1)Cc1cc(F)c(F)cc1F |  |  | human, male, plasma | oral, 100 mg single dose |  | AUC(0-2) divided by body mass index | 20.1 ± 9.35 ng·h/mL
CN(C(=O)n1cnc(-c2cccnc2)c1)C1CCCCC1 |  |  | Wistar rat, pons | oral, 10 mg/kg/day of BIA 10-2474, 72 h, repeated 5 days |  | concentration | 8 ± 0.2 ng/g
Cc1nc(-c2ccc(OCC(C)C)c(C#N)c2)sc1C(=O)O |  |  | healthy Chinese subjects | oral, 40 mg |  | abdominal pain incidence | 2.6%
CNC(=O)c1cc(Oc2ccc(NC(=O)Nc3ccc(Cl)c(C(F)(F)F)c3)c(F)c2)ccn1 |  |  | reconstituted mouse plasma extract | up to 24 h, 4 °C | reference: initial concentration | autosampler stability | < 15%
Cc1ccc([C@@H]2O[C@H](CO)[C@@H](O)[C@H](O)[C@H]2O)cc1Cc1ccc(-c2ccc(F)cc2)s1 |  |  | Japanese type 2 diabetes patients | 400 mg, day 5, 24 h urine collection | reference: baseline | urinary calcium excretion change | -27.5 mg
COc1cc2c3c(n(CCCN4CCOCC4)c(=O)c2cc1OC)-c1cc2c(cc1C3=O)OCO2 |  |  | beagle dog, male, plasma | intravenous infusion, 50 mg/m^2, 1 h infusion, vehicle 2 |  | t1/2 | 7.8 ± 3.6 h
O=C(O)C/C=C/CC(=O)O |  | binding, MIDAS equilibrium dialysis LC-MS | A2AR-BRIL thermostabilized | concentration not given | reference: no-protein control | log2 fold change | -0.0945
COc1cc2c3cc1Oc1c(OC)c(OC)cc4c1[C@@H](Cc1ccc(O)c(c1)Oc1ccc(cc1)C[C@@H]3N(C)CC2)N(C)CC4 |  |  | mouse plasma, K3EDTA | 1 h, 37 °C |  | remaining compound | 110%
COc1ccc(OCc2ccc([N+](=O)[O-])cc2)cc1-c1c[nH]c2ncc(-c3cncc(C(=O)N(C)C)c3)cc12 |  | HPLC | PBS | 24 h, 37 °C |  | chemical stability | stable
Cn1cc(-c2ccc(-c3cncc(Cl)c3N3CCC4(CCNC4=O)CC3)cc2)cn1 | COLO 205 | microarray, item: ADM |  | concentration not given, 6 h | reference: untreated cells | fold change in expression | 1.86
Cc1cc(-c2nccc3c2ccn3CC(=O)Nc2ccc(-c3cnccn3)cn2)ccn1 |  |  | human | 15 mg once daily, multiple ascending dose |  | subjects with nasal discomfort | 0%
O=C(c1nc2n(n1)[C@H](c1ccccc1)C[C@@H]2F)C1CC1 |  | geometric mean | human, fasted | 75 mg single dose |  | renal clearance | 0.172 mL/min
CN(C(=O)n1cnc(-c2cccnc2)c1)[C@H]1CC[C@H](O)CC1 |  |  | cynomolgus monkeys, plasma | oral, 1.0 mg/kg |  | Tmax | 2 h
Cn1cc(-c2ccc(S(=O)(=O)[C@@H]3C[C@@H](C(=O)NC4(C#N)CC4)N(C(=O)C4(C(F)(F)F)CC4)C3)c(C(F)(F)F)c2)cn1 |  | noncompartmental analysis | human, plasma | oral, 50 mg, day 1, with food, geometric mean |  | t_half | 497 min

Compound | target or system | assay | system | conditions | how to read | quantity | value
CNC(=O)c1ccccc1Nc1cc(Nc2ccc(N3CCOCC3)cc2OC)ncc1C(F)(F)F |  |  | soybean oil | 24 h, 25 °C |  | solubility | 220 µg/mL (≈ 439 µM)
CC(C)[C@H](C(=O)Nc1ccc(C(=O)NO)cc1)c1ccccc1 |  |  | whole blood | 100 ng/mL, 3 h, 4 °C, stability on ice |  | accuracy | 109%
Cc1cccc(CNC(=O)c2cn(CCNC(=O)c3ccccc3Sc3c([N+](=O)[O-])ncn3C)c3cc4c(cc3c2=O)OCO4)n1 |  | LC-MS/MS | CD-1 mouse, whole blood | 1 µM, 1.5 h |  | remaining compound | 83.9%
O=C(COc1ccc(Cl)cc1)NC12CC(c3nnc([C@H]4C[C@@H](OC(F)(F)F)C4)o3)(C1)C2 |  |  | healthy human volunteers fasted, plasma | oral, 400 mg single dose, geometric mean |  | AUC | 337 µM·h
COc1ccc2nc([S@@+]([O-])Cc3ncc(CO)c(OC)c3C)[nH]c2c1 |  |  | human | concentration not given, fluvoxamine plus voriconazole inhibition session | reference: (R)-OH-omeprazole over compound | AUC ratio | 3.5 fold
O=C(O)CCC(=O)O.[2H]C([2H])([2H])Oc1cc(C)c2[nH]ccc2c1CN1CC[C@@H](C2CC2)C[C@H]1c1ccc(C(=O)O)cc1 |  |  | healthy Chinese subjects | 200 mg, single ascending dose |  | TEAE urine bacteria positive | 0%
CN(CC#N)C(=O)C[C@H](Nc1nc2ccccc2[nH]1)c1cccc(C(F)(F)F)c1 |  |  | human | intravenous infusion, 3 mg/kg, 1 mg/mL formulation |  | apparent clearance | 10.4 ± 2.86 L/h
c1ccc2c(c1)ccc1c3ccccc3ccc21 |  |  | PDMS-water partitioning | PAH compilation | reference: maximum over minimum K | literature range factor | 9
O=C(O)CCCOc1ccc([18F])cc1-c1cc(-c2ccccc2C(F)(F)F)n(-c2ccccc2)n1 |  | gamma counting | male ddY mice, liver | intravenous, 2.1 MBq, 5 min |  | radioactivity uptake | 2.57 ± 0.13 SUV
Cc1cc(NC2CCN(C(=O)OC3CCN(C(=O)/C=C/CN(C)C)C3)CC2)n2ncc(C(C)C)c2n1 (stereo not drawn) |  | Phase I dose escalation CTCAE v4.0, item: Headache | patients with advanced solid tumours | dose not given, all dose schedules any grade |  | patients with adverse event | 9%
CNCCOC12CC3(C)CC(C)(CC(Cn4ncc(-c5ccc(N6CCc7cccc(C(=O)Nc8nc9ccccc9s8)c7C6)nc5C(=O)O)c4C)(C3)C1)C2 |  |  | anaesthetised male beagle dogs | intravenous bolus, 0.03 mg/kg, 75 min | reference: baseline | systemic vascular resistance change | 26%
OCC1=C[C@@H](O)[C@@H]2C=CO[C@@H](O[C@@H]3O[C@H](CO)[C@@H](O)[C@H](O)[C@H]3O)[C@H]12 |  |  | rat plasma | 1000 ng/mL, 2 weeks, -70 °C, post-preparative stability |  | accuracy | 85.2%
Cc1cc([C@H]2C[C@H]3[C@@H](C)SC(N)=N[C@@]3(c3ccc(F)cc3F)CO2)on1 |  |  | male 129/SVE mouse, brain | subcutaneous, 50 mg/kg, 18 h |  | brain concentration | 139 nM
O=C(O)CCc1cn2cccnc2n1 | Ubiquitin carboxyl-terminal hydrolase 16, ZnF-UBD domain (USP16, Homo sapiens, UniProt Q9Y5T5) |  |  |  |  | Kd | > 1000 µM
C[C@@H](Nc1cc(F)cc(F)c1)c1cc(C(=O)N(C)C)cc2c(=O)cc(N3CCOCC3)oc12 |  | CTCAE v4, item: muscular weakness | patients with advanced solid tumours | oral, dose not given, phase I dose expansion |  | patients with related SAE | 0%
C=C[C@@](C)(/C=C/c1ccc(O)cc1)CCC=C(C)C |  | post-procedure stability | rat plasma | 1000 ng/mL, 1 h, room temperature |  | accuracy | 87.7%
CN1C(=O)[C@@H](NC(=O)c2nnc(Cc3ccccc3)[nH]2)COc2cccnc21 |  | phase I single ascending dose | human, male and female | oral, 800 mg, fasted |  | participants with any AE of special interest | 0%
C=CC(=O)Nc1cc(Nc2nccc(-c3cn(C)c4ccccc34)n2)c(OC)cc1N(C)CCN(C)C |  | storage stability | human dried blood spot | 30 d, -80 °C, LLOQ level |  | recovery | 94.3%
CC(C)(C(=O)N1CCOc2c(C#N)cncc2C1)C(F)F |  | item: Headache | human | oral, 10 mg once daily, 14 days, multiple ascending dose |  | subjects with adverse event | 25%
C[C@H]1Oc2cc(cnc2N)-c2c(nn(C)c2C#N)CN(C)C(=O)c2ccc(F)cc21 |  |  | mouse, plasma | oral, 10 mg/kg, 1 h, 1 doses |  | free plasma concentration | 2180 nM
CCCCCN1C[C@H](O)[C@@H](O)[C@H](O)[C@@H]1CO |  | LC-MS/MS | mouse Hexb-/- male, plasma | 300 mg/kg/day, geometric mean |  | plasma concentration | 2710 ng/mL
Cc1ccc(Sc2ccccc2N2CCNCC2)c(C)c1 |  | item: protein in urine | healthy adult men | oral, 10 mg daily, 12 days |  | participants with TEAE | 0%

Excerpt of the above:
Compound | target or system | assay | system | conditions | how to read | quantity | value
Cc1ccc([C@@H]2O[C@H](CO)[C@@H](O)[C@H](O)[C@H]2O)cc1Cc1ccc(-c2ccc(F)cc2)s1 |  |  | Japanese type 2 diabetes patients | 400 mg, day 5, 24 h urine collection | reference: baseline | urinary calcium excretion change | -27.5 mg
COc1cc2c3c(n(CCCN4CCOCC4)c(=O)c2cc1OC)-c1cc2c(cc1C3=O)OCO2 |  |  | beagle dog, male, plasma | intravenous infusion, 50 mg/m^2, 1 h infusion, vehicle 2 |  | t1/2 | 7.8 ± 3.6 h
O=C(O)C/C=C/CC(=O)O |  | binding, MIDAS equilibrium dialysis LC-MS | A2AR-BRIL thermostabilized | concentration not given | reference: no-protein control | log2 fold change | -0.0945
COc1cc2c3cc1Oc1c(OC)c(OC)cc4c1[C@@H](Cc1ccc(O)c(c1)Oc1ccc(cc1)C[C@@H]3N(C)CC2)N(C)CC4 |  |  | mouse plasma, K3EDTA | 1 h, 37 °C |  | remaining compound | 110%
